Experimental data from different studies.
A part holds a random share of what one study measured.
Chain of UniProt Q9Y616 (whole entry, looked up): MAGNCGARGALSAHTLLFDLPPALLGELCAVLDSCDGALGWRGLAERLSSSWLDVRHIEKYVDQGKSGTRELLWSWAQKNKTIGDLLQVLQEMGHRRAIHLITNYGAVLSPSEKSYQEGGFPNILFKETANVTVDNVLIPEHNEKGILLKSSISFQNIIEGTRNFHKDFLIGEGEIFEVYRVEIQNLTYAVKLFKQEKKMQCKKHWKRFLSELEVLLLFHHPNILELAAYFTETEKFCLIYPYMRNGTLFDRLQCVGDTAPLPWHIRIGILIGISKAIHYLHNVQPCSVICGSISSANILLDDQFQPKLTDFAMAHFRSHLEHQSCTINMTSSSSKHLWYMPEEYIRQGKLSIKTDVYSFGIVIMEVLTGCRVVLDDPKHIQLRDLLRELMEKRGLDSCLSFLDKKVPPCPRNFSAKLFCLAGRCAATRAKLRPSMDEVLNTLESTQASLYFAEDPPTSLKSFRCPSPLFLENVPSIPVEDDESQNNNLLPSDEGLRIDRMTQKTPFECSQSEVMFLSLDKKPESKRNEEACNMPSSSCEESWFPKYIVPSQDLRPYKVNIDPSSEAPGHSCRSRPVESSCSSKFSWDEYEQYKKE
Chain of UniProt O00506 (whole entry, looked up): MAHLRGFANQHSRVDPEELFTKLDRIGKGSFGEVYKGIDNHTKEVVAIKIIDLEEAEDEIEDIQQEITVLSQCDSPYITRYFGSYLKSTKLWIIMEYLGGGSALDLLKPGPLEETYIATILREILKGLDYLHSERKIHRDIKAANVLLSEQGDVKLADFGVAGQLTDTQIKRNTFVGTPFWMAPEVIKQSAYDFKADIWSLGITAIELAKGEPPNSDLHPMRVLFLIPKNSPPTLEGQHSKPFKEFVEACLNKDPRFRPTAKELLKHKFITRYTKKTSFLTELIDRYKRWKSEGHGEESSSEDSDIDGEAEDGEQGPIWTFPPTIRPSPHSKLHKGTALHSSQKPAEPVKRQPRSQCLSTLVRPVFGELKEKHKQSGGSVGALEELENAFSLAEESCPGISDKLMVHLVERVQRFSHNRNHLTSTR
Chain of UniProt P00519 (whole entry, unmodified, looked up): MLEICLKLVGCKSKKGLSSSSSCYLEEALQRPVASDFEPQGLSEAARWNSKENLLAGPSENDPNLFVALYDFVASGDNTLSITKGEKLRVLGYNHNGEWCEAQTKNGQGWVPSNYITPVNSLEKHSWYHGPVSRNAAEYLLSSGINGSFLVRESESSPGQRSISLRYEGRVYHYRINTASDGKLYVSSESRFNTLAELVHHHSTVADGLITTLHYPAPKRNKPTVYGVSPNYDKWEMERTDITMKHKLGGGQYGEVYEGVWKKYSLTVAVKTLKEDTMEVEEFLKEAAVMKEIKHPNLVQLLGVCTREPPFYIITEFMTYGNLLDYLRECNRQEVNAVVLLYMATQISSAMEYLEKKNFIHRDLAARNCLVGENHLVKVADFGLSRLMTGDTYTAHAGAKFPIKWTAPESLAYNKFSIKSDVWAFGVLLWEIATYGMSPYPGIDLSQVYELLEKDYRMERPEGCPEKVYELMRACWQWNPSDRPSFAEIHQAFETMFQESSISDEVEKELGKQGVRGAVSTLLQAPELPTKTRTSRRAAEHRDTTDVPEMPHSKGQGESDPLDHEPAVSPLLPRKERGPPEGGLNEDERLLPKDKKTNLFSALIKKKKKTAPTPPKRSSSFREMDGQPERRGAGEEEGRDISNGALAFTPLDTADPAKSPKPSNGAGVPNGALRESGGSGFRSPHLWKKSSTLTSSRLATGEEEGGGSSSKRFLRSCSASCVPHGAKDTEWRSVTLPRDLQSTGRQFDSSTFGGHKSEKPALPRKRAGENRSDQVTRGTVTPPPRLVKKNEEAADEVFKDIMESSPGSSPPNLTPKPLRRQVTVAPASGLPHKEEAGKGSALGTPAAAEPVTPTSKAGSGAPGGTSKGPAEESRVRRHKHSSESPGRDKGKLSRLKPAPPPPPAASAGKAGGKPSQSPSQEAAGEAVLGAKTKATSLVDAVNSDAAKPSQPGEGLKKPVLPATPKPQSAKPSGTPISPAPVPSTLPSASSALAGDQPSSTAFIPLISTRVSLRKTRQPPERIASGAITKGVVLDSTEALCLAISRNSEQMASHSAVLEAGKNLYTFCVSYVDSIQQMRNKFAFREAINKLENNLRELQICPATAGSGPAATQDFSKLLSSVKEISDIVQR
Chain of UniProt P23458 (whole entry, looked up): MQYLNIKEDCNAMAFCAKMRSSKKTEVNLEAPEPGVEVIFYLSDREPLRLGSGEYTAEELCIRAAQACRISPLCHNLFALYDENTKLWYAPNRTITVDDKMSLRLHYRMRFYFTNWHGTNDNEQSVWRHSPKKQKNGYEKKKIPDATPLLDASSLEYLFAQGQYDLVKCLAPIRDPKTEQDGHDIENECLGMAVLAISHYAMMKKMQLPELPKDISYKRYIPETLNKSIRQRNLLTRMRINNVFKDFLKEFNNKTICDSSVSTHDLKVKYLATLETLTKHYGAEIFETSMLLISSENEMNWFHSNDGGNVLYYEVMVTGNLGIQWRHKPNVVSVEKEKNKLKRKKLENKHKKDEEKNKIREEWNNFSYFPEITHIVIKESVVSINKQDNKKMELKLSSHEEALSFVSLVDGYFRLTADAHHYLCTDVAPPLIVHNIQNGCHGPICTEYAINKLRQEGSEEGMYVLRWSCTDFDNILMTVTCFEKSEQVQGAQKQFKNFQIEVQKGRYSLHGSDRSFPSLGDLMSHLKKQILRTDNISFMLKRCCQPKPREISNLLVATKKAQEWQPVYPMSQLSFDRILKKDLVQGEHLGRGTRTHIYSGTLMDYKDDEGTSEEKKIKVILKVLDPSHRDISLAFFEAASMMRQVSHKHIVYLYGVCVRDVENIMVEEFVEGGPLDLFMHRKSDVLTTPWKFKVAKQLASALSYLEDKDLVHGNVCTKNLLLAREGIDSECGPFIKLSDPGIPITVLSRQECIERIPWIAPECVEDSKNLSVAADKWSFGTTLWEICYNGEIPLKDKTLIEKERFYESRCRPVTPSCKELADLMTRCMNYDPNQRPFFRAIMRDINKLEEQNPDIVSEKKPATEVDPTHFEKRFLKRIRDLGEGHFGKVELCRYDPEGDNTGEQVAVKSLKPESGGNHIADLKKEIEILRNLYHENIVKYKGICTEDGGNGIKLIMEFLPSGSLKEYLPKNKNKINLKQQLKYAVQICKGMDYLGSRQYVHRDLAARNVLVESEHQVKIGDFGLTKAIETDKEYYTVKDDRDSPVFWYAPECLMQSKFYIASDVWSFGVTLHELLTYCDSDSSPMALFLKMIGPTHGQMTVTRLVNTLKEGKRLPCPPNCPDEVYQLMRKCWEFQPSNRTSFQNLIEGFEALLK
Chain of UniProt Q9NYY3 (whole entry, looked up): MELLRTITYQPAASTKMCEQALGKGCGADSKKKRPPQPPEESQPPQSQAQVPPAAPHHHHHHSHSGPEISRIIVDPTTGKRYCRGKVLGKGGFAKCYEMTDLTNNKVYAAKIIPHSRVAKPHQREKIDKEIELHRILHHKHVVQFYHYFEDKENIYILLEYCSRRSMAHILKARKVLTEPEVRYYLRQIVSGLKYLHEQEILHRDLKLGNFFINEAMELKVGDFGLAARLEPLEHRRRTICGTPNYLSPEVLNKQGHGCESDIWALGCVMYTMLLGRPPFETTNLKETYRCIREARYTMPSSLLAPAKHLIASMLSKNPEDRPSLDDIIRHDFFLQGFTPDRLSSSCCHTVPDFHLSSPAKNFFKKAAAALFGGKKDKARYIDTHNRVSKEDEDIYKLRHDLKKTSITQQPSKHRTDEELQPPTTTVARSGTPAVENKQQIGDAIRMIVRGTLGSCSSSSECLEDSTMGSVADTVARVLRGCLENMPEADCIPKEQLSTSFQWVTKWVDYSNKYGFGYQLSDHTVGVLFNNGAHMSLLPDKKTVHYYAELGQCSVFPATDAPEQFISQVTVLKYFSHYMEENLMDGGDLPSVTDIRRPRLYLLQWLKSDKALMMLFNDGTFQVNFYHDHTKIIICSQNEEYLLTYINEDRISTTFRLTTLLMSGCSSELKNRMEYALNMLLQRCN

Sample 1 — read-out: enzyme activity; mode: inhibitor; concentration: 0.5 µM; reference: control
Target: Interleukin-1 receptor-associated kinase 1 (IRAK1, Homo sapiens, UniProt P51617)
Chain of UniProt P51617 (whole entry, looked up): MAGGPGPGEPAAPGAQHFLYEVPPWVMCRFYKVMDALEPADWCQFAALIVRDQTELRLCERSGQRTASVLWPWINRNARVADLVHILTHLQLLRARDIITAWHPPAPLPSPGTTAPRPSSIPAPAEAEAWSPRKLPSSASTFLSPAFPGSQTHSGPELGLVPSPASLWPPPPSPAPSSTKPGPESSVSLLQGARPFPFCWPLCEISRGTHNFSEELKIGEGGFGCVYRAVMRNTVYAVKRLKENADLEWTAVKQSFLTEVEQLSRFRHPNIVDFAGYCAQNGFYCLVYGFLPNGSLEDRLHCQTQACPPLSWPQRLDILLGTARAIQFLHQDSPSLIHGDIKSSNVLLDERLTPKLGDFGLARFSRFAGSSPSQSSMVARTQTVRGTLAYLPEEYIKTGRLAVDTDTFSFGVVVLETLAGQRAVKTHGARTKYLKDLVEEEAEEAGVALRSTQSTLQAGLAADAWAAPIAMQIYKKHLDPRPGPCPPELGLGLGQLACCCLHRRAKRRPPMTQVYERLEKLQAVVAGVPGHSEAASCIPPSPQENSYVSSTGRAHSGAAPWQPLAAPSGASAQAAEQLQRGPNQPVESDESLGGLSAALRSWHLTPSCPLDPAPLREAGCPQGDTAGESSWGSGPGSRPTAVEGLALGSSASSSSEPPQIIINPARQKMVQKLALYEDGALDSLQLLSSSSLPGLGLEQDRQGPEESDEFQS
| SMILES | remaining activity [%] |
| --- | --- |
| O=C(NC(NC(=S)Nc1ccc(F)c([N+](=O)[O-])c1)C(Cl)(Cl)Cl)C(c1ccccc1)c1ccccc1 (stereo not drawn) | 107 |
| Cc1nc2cc3nc(-c4cccs4)cnc3cc2n1C | 113 |
| O=C1C(Cl)=C(N2C(=O)CCC2=O)C(=O)c2ccccc21 | 101 |
| CCN(CC)CCNC(=O)c1c(C)[nH]c(/C=C2\C(=O)Nc3ccc(Cl)cc32)c1C | 14.1 |
| N#Cc1c(NC(=O)c2cccc3ccccc23)sc2c1CCCC2 | 104 |
| C[C@@H]1CCN(C(=O)CC#N)C[C@@H]1N(C)c1ncnc2[nH]ccc12 | 93.9 |
| c1ccc(-c2[nH]ncc2-c2ccnc3ccccc23)nc1 | 124 |
| O=C1c2ccccc2-c2n[nH]c3cccc1c23 | 72.4 |
| COc1cc2c(cc1OC)-c1[nH]nc(Nc3cccc(F)c3)c1C2 | 97.8 |
| Nc1cccc(-c2cc3c(Oc4cccc(O)c4)ncnc3[nH]2)c1 | 91.4 |
| CCN(CC)CCNC(=O)c1c(C)[nH]c(/C=C2\C(=O)Nc3ccc(F)cc32)c1C | 31.4 |
| O=c1cc(-c2cccc3c2Sc2ccccc2S3)oc(N2CCOCC2)c1 | 103 |
| CN(C)C[C@H]1CCn2c(c(C3=C(c4cn(C)c5ccccc45)C(=O)NC3=O)c3ccccc32)C1 | 127 |
| Ic1cccc(CSc2nnc(-c3ccncc3)o2)c1 | 121 |
| COc1cc2ncnc(Nc3cccc(Cl)c3)c2cc1OC | 86.6 |
| CCOc1nc(NC(=O)Cc2cc(OC)ccc2OC)cc(N)c1C#N | 100 |
| Cc1cc2ncc(-c3ccccc3)nc2cc1C | 114 |
| Cc1cn(-c2cc(NC(=O)c3ccc(C)c(Nc4nccc(-c5cccnc5)n4)c3)cc(C(F)(F)F)c2)cn1 | 93.3 |
| c1ccc(-c2cnc(Nc3ccc(OCCN4CCCC4)cc3)s2)cc1 | 109 |
| COc1cc2ncnc(Nc3ccc(O)c(Br)c3)c2cc1OC | 75.5 |
| Cn1nc2c3c(cccc31)C(=O)c1ccccc1-2 | 99.6 |
| CCN(CC)C(=O)c1ccc(Nc2nc(OCC3CCCCC3)c3[nH]cnc3n2)cc1 | 93.8 |
| O=C(Nc1cccc(Nc2nccc(Nc3cccc(C(F)(F)F)c3)n2)c1)C1CC1 | 96.4 |
| N#C/C(=C\c1ccc(O)c(O)c1)C(=O)NCc1ccccc1 | 154 |
| CN([C@@H](Cc1ccc(OS(=O)(=O)c2cccc3cnccc23)cc1)C(=O)N1CCN(c2ccccc2)CC1)S(=O)(=O)c1cccc2cnccc12 | 95.4 |

Sample 2 — species: human; medium: microsomes or S9; concentration: 2 µM; time: 0.5 h
| Compound | remaining compound [%] |
| --- | --- |
| COc1cc(=O)n(-c2ccccc2)cc1C(=O)NC1CC2CCC(C1)N2S(C)(=O)=O (stereo not drawn) | 80.1 |
| Cc1cc(-n2c(C)cc(C(=O)CSc3[nH]c(=O)cc(C(F)(F)F)c3C#N)c2C)no1 | 0.124 |
| CCOc1cc(=O)n2c(c1C(=O)NC1CCCC1)CCCCC2 | 72.7 |
| O=c1c(O)c(-c2ccccc2OC(F)F)oc2ccccc12 | 5.29 |
| Nc1ccc(C(=O)OCc2nc3c(ccc4ccccc43)[nH]2)cc1 | 6.1 |
| CCN(CC)CCN(C)Cc1cccc2ccccc12 | 31.4 |
| Cc1cc(C)cc(N/C(N)=N/Cc2nc(C(C)(C)C)cs2)c1 | 0.0686 |
| COc1ccc(/C=C/c2nnc(-c3ccc(Cl)cc3Cl)o2)cc1 | 4.61 |
| O=C(O)/C=C/c1ccc(NC(=O)Cc2c[nH]c3ccccc23)cc1 | 94.9 |
| CCCc1cc(-c2nc(Cc3nn4c(C(C)C)nnc4s3)cs2)ccn1 | > 99 |

Sample 3 — SMILES: O=C(Nc1ccccc1)Nc1cccc(Oc2ccc3nccn3n2)c1; method: competitive binding panel; concentration: 1 µM; reference: vehicle
| target | assay | conditions | remaining binding [%] |
| --- | --- | --- | --- |
| STK25 (Homo sapiens, UniProt O00506) | refers to: YSK1 | – | 100 |
| PLK2 (Homo sapiens, UniProt Q9NYY3) | – | – | 100 |
| IRAK3 (Homo sapiens, UniProt Q9Y616) | – | – | 99 |
| ABL1 (Homo sapiens, UniProt P00519, M351T) | – | – | 100 |
| JAK1 (Homo sapiens, UniProt P23458) | – | JH1 catalytic domain | 84 |

Sample 4 — read-out: binding; method: radioligand binding; concentration: 10 µM
Target: Sigma non-opioid intracellular receptor 1 (SIGMAR1, Homo sapiens, UniProt Q99720)
Chain of UniProt Q99720 (whole entry, looked up): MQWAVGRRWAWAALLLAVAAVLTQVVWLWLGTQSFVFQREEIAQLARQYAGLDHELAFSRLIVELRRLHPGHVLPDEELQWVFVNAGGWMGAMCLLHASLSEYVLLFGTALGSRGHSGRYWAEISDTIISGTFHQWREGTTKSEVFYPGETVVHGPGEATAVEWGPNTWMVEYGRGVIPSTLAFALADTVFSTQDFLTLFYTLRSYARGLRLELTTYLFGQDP
| SMILES | inhibition [%] |
| --- | --- |
| Cc1nc(Cc2cccc(C(F)(F)F)c2)sc1-c1ccc(C(N)=O)nc1 | 11.7 |
| CN(C)C(=O)Cn1cc(-c2nc([C@@](C)(c3ccc(-c4cnc(N)nc4)cc3)C3CC3)no2)cn1 | -25.2 |
| C[C@@H]1CN(c2cc(-c3nn(C)c4ccc(OC5(C)CC5)cc34)ncn2)C[C@H](C)O1 | 58.2 |
| COc1cc(-c2cn(C3CCc4ccccc4N(CC(F)(F)F)C3=O)nn2)ccc1-n1ccc(C)n1 (stereo not drawn) | 23.2 |
| CC(C)CC(=O)N1CCc2nc(-c3ccc(Br)cc3)nc(N(C)Cc3ccccc3)c2C1 | 49.4 |
| COc1cccc(CNC(=O)c2nc3scc(COCc4ccc(C(=O)O)cc4)c3c(=O)[nH]2)c1 | -13.8 |
| COc1nc2ccc([C@@](O)(c3ccccc3)C3CCN(C(C)=O)CC3)cc2c(Cl)c1Cc1ccc(-n2cccn2)cc1 | 102 |
| O=C1CCc2cc(Nc3cc(OC4CCOCC4)c([N+](=O)[O-])cc3Cl)ccc2N1 | 11.7 |
| Cc1nccc(COC(=O)N2C[C@@H]3[C@@H](CNC(=O)c4ccc5[nH]nnc5c4)[C@@H]3C2)n1 | 3.21 |
| Cc1nc(C2CCN(C(=O)c3ccc(OC(F)(F)F)cc3N)CC2)c2ncc(N3CCN(C)CC3)cc2n1 | 72.7 |
| O[C@]1(C(F)(F)F)CCCC[C@H]1Nc1ccc(F)cc1 | 36.2 |
| CC1=C(C#N)C(c2ccc3c(c2)c(NC(=O)c2ccccc2C)nn3C)C(C#N)=C(C)N1 | 37.9 |
| Cc1cc(C)c(-n2ccn3nc(-c4cccnc4)cc23)cc1NC(=O)c1cc(C#N)cc(S(F)(F)(F)(F)F)c1 | -4.84 |

Further values, each from its own experiment
| Structure (SMILES) | test system | conditions | endpoint | value |
| --- | --- | --- | --- | --- |
| CNC(=O)c1ccc(-c2cnn3ccc(C(=O)N(C[C@H]4CCC(=O)O4)c4ccc(OC(F)(F)F)cc4)cc23)cc1 | female C57BL/6 mouse, plasma | oral, 10 mg/kg, 4 h | concentration | 3.1 nM |
